Literature values, collected from citations in different studies.
Protocols differ between the studies behind these lines.
UniProt Q16288, sequence (whole entry, looked up): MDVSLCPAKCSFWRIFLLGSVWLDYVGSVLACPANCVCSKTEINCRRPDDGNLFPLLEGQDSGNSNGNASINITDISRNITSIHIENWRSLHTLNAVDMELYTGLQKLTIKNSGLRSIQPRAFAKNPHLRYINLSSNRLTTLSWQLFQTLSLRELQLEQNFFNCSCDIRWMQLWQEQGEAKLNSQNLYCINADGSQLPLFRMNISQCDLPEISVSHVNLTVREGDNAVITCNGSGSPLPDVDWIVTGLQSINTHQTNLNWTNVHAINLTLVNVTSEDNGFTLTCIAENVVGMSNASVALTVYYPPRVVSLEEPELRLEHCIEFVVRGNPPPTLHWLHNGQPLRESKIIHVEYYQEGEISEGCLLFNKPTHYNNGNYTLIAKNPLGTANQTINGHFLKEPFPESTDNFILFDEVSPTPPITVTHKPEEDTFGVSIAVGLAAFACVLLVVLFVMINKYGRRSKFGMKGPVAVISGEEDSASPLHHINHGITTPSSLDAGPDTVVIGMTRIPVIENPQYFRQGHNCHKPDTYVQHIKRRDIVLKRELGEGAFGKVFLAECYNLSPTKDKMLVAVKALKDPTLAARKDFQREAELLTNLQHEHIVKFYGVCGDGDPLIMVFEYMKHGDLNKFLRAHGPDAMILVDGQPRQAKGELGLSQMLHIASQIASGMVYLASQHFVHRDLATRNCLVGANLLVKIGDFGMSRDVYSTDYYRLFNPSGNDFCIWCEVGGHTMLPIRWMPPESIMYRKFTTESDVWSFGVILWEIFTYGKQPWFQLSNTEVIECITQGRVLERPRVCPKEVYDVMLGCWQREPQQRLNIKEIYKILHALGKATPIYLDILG

N#CCNC(=O)c1ccc(-c2ccnc(Nc3ccc(N4CCOCC4)cc3)n2)cc1  contribution to metabolism (CYP3A4; human hepatocytes): 36%
FC(F)(F)C(F)(F)C(F)(F)C(F)(F)C(F)(F)C(F)(F)C(F)(F)C(F)(F)C(F)(F)C(F)(F)F  activity (CYP3A4; concentration not given): inactive
CC(O)C(C)n1ncn(-c2ccc(N3CCN(c4ccc(OCC5COC(Cn6cncn6)(c6ccc(Cl)cc6Cl)O5)cc4)CC3)cc2)c1=O (centres unmarked)  Ki (CYP3A4; inhibitor): 14.4 nM
C#C[C@]1(O)CC[C@H]2[C@@H]3CCC4=CC(=NO)CC[C@@H]4[C@H]3CC[C@@]21CC (mixture of isomers)  fraction metabolized (CYP3A4): 0.57
FC1(F)C(F)(F)C(F)(F)C2(F)C(F)(F)C(F)(F)C(F)(F)C(F)(F)C2(F)C1(F)F (centres unmarked)  IC50 (CYP3A4; inhibitor; Tox21 screening): inactive
COCCc1ccc(OCC(O)CNC(C)C)cc1 (centres unmarked)  CLint (CYP3A4): 0.02 µL/min/pmol
CO[C@@H](C)Cn1c(=O)n(C)c2cnc3ccc(-c4cncc(C(C)(C)O)c4)cc3c21  fraction of hepatic clearance (CYP3A4; substrate depletion): 82%
FC(F)OC(Cl)C(F)(F)F (centres unmarked)  IC50 (CYP3A4; inhibitor; Tox21 screening): inactive
COc1cc2c(Oc3ccc4[nH]c(C)cc4c3F)ccnc2cc1OCC1(N)CC1  IC50 (CYP3A4; enzyme activity, inhibitor; added: testosterone): 2090 nM
C=CC[C@@H]1/C=C(\C)C[C@H](C)C[C@H](OC)[C@H]2O[C@@](O)(C(=O)C(=O)N3CCCC[C@H]3C(=O)O[C@H](/C(C)=C/[C@@H]3CC[C@@H](O)[C@H](OC)C3)[C@H](C)[C@@H](O)CC1=O)[C@H](C)C[C@@H]2OC  Km (CYP3A4; metabolism, substrate; unbound fraction unadjusted): 1.5 µM
COC(=O)N[C@@H](C)CNc1nccc(-c2cn(C(C)C)nc2-c2cc(Cl)cc(NS(C)(=O)=O)c2F)n1  contribution to oxidative clearance (CYP3A4; single dose): ~83%
CC(O)C(C)n1ncn(-c2ccc(N3CCN(c4ccc(OCC5COC(Cn6cncn6)(c6ccc(Cl)cc6Cl)O5)cc4)CC3)cc2)c1=O (centres unmarked)  Km (CYP3A4; substrate): 0.027 µM
CC(O)C(C)n1ncn(-c2ccc(N3CCN(c4ccc(OCC5COC(Cn6cncn6)(c6ccc(Cl)cc6Cl)O5)cc4)CC3)cc2)c1=O (centres unmarked)  Ki (CYP3A4; inhibitor; Simcyp input parameter): 4.6 nM
Cc1ccc(NC(=O)c2ccc(CN3CCN(C)CC3)cc2)cc1Nc1nc(-c2cccnc2)cs1  IC50 (CYP3A4; reversible inhibitor): 3860 nM
CC(C)Nc1nc2cc(Cl)c(Cl)cc2n1[C@H]1O[C@@H](CO)[C@H](O)[C@@H]1O  metabolism contribution (CYP3A4): 70 to 85%
Fc1c(F)c(F)c(Br)c(F)c1F  activity (CYP3A4; concentration not given): inactive
COc1cnc(-n2cnc(C)n2)c2[nH]cc(C(=O)C(=O)N3CCN(C(=O)c4ccccc4)CC3)c12  metabolism share (CYP3A4): 21.2%
Nc1cc(C(F)(F)F)c(-c2nc(N3CCOCC3)nc(N3CCOCC3)n2)cn1  remaining activity (NT-3 growth factor receptor (NTRK3, Homo sapiens, UniProt Q16288); enzyme activity; 10 µM; baseline: untreated): 92%
C=C(C)C(=O)OCCC(F)(F)C(F)(F)C(F)(F)C(F)(F)C(F)(F)C(F)(F)F  activity (CYP3A4; concentration not given): inactive
CC(O)C(C)n1ncn(-c2ccc(N3CCN(c4ccc(OCC5COC(Cn6cncn6)(c6ccc(Cl)cc6Cl)O5)cc4)CC3)cc2)c1=O (centres unmarked)  Km (CYP3A4): 0.00417 µM

For quick reference, copied from above:
Fc1c(F)c(F)c(Br)c(F)c1F  activity (CYP3A4; concentration not given): inactive
COc1cnc(-n2cnc(C)n2)c2[nH]cc(C(=O)C(=O)N3CCN(C(=O)c4ccccc4)CC3)c12  metabolism share (CYP3A4): 21.2%
Nc1cc(C(F)(F)F)c(-c2nc(N3CCOCC3)nc(N3CCOCC3)n2)cn1  remaining activity (NT-3 growth factor receptor (NTRK3, Homo sapiens, UniProt Q16288); enzyme activity; 10 µM; baseline: untreated): 92%
